# Experimental data of several laboratories.
# Each numbered part is a random draw from the data of one study; scales do not carry over between parts. Positions count from the first letter of the parent shown.

# Block 1
# Target: CCNE1, cyclin fold, Cln2 fusion (human)
# Method: yeast growth competition, sequencing
# Medium: yeast
# Setting: strong parent motif
# Reference: not given
# Direction: higher = stronger binding
# Parent: GMNC docking peptide (human); KNAKRNLSSEFAN
Substitution,normalised enrichment score
S8M,3.97
R5A,0.123
F11R,-0.0589
S8E,1.53
F11Q,0.439
L7P,0.152
N2P,1.18
N2A,1.01
E10C,0.603

# Block 2
# Substance: PhoQ, residues 284 288 289 292 302 303 QWGLFV
# Method: Sort-seq
# Refers to: YFP reporter
# Medium: E. coli
# Setting: PhoQ-PhoP variant library
# With: 10 µM Mg2+
# Reference: high Mg2+ state
# Direction: higher = stronger signaling
target,fold induction
"PhoP, residues 12 14 15 18 19 QQAYL (Escherichia coli, UniProt P23836)",11.1
"PhoP, residues 12 14 15 18 19 LFHKL (Escherichia coli, UniProt P23836)",8.49
"PhoP, residues 12 14 15 18 19 GMGLL (Escherichia coli, UniProt P23836)",1.57

# Block 3
# Target: Histone acetyltransferase KAT6A, winged helix 1, GST fusion (KAT6A, Homo sapiens, UniProt Q92794, residues 1-85)
# Method: protein binding microarray
# Form: double-stranded DNA, one strand shown
# Medium: in vitro
# Tested at: not given
# Setting: 8-mer, flanks averaged, mean of 2 arrays, mostly near background
# Reference: not given
# Direction: higher = stronger binding
# Residues (chain): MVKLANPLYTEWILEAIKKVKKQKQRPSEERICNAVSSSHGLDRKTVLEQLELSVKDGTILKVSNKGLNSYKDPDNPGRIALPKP
Sequence,E-score
ATTAAGCC,0.0653
CTGACGAA,-0.104
CATCATTA,-0.025
GCGCGAAC,0.331
ATGCGACC,0.254
AATTTGTA,-0.131
AGGAACAG,-0.175
CCAGAGAG,-0.299
CCCTTTCG,-0.00732
ACGACCCT,-0.189

# Block 4
# Target: RNA binding protein fox-1 homolog 2, RRM domain, GST-SBP tag (RBFOX2, Homo sapiens, UniProt O43251-10, residues 100-194)
# Method: RNA Bind-n-Seq
# Form: RNA
# Medium: in vitro
# Tested at: 365 nM
# Setting: natural RNA segment, single round, ends assumed
# Reference: no-protein control
# Direction: higher = stronger binding
# Shared flanks, not repeated: GGGAGUUCUACAGUCCGACGAUC … UGGAAUUCUCGGGUGCCAA
# Construct (chain): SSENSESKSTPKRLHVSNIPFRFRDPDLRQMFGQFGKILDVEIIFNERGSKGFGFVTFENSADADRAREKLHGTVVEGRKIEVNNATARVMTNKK
Sequence,RBNS enrichment (R)
AAAUGUGAAGGGGAGAGACAGGGGCCGCCCUUGGCUCCUGUCCCUGCUGCUCCUCUAGGCCUCACUCAACAACCAAGCGCCUGGAGGACGGGACAGAUGGACAGACAGCC,0.256
AGUUCCCCCUUCCUGAGAGACUCUGUCUGGGCCAGAAGCCAUUCAUUGAAAGGUUGCGAUGGCAACCAGCCUCCAGCCAUGCAGGCCUGUUUUUAGAGAGAUGGGUCUCU,0.252
ACUCAUACACGUAAUGUCUGCUUUUCGUACAGAACUAGCCAAUGUAAAAACAGUUCACCUGUAAAUACUUUUUCCUUUUUCACCGUUGUAUUAUACAUGUAUAUGCUGGG,0.292
AGGUUUUGGAUGUGAAAAAGAGUUUCCAAAAGAAUGGUGUCUGGGAGUUUGAAUGUGAUGAUUAAAAAAAGAGCCAAGGAAAAAGGUAGCUAGAAAAAAAGGUUGGCUCU,13.8
ACAGUGUAGGAUUUAAGAAUAGAUGGUUUUUAAUCCUGGAAAUUGUGAUUGUGACCCAUGAGUGGAGGAACUUUCAGUUCUAAAGCUGAUAAAGUGUGUAGCCAGAAGAG,0.5
CUGCCCACAUCCUUGCAUCACUGUUUGCCCUGCCUAUCUCUUUCCAAAUUGUCAACUCCCUUGCCCAAUACUGGUGGGCUGUGAACAGCCUAAGGGACCUCGCUCCAGCU,1.6
GGCUUACUGGGUUUAGAAUGGAAACAACAUUCACUACUGUUCAGUGCAUGCUGGUACAAUCUCUUAGAAACUCCUAAGAUGGUUUGGGAAAAUACAGUGCAAUUAGUGAU,0.759
CCAGCCAAAUAGUGUUCUCGGGGUGGUGGCUGGGCAGCGCCUAUGUUUCUCUGGAGAUUCCUGCAACCUCAAGAGACUUCCCAGGCGCUCAGGCCUGGAUCUUGCUCCUC,0.325
GGCGCUUCGAAAGGCGUGCAUGCAGAAAUGGCCGAGGACAUGCAGGUUUGGGUGGUGUGCCUGCAGACUUCAUUUGUGCCAAUGUAUUACUGUAGAGUCGCUCUGUUUCC,2.56
AAGAUUUCCCAGUUUGGUUUCUCUACAUGUCCUGCAGCUGCCCCACUUCUCCUUUACGCUGUGUAGAGAAUGCUCUGCAGUUUAGGCAAUAAAAAUAAAUUGUCUCACUA,0.383
CCCGUCUCCCAGGGCAUUUCCCCCUCCCGUGCACAGCCAUUGGUGGCAAAUCCUUCUGCCAUCAGCUGUGUGGGCUUGCCUCUUUGAGCUCAUCUCCCCUCACAGGCUGU,0.381
UGGGGUUAGAAACCUGCAAAGGCAGCCGGGCGUGGUGGCGCAUGCCUUUAAUCCCAGCACUCGGGAGGCAGAGGCAAGCGGAUUUCUGAGUUUGAGGCCAACCUGGUCUA,1.83
